Assay results of several laboratories.
“And” joins repeats or separate records; there may be more than shown. ± marks the error that the study gave.
ROP18: ROP18 (Toxoplasma gondii, UniProt Q2PAY2)

SMILES = c1cncc(OC[C@@H]2CCCN2)c1; target or system = Neuronal acetylcholine receptor; alpha4/beta2 (Rattus norvegicus, UniProt P09483+P12390); assay = ligand displacement, radioligand; conditions = cell membranes; quantity = IC50; result = 0.00251 µM
SMILES = Cc1cc2ccccc2c2ccc3ccccc3c12; target or system = Cytochrome P450 1B1 (CYP1B1, Homo sapiens, UniProt Q16678); assay = enzyme activity, inhibitor; conditions = 5 s, pH 7.4; quantity = IC50; result = < 0.05 µM
SMILES = C/C=C(/C)C(=O)O[C@H]1C(C)=C2[C@H]([C@@H]1OC(=O)CCCCCCC)[C@@](C)(OC(C)=O)C[C@H](OC(=O)CCCCCCCCCCCNC(=O)C[C@H](N)C(=O)O)[C@@]1(O)[C@H]2OC(=O)[C@@]1(C)O; target or system = Sarcoplasmic/endoplasmic reticulum calcium ATPase 1 (ATP2A1, Oryctolagus cuniculus, UniProt P04191); assay = enzyme activity, inhibitor; quantity = IC50; result = 0.018 ± 0.002 µM
SMILES = O=C(O)c1ccc2cccnc2n1; target or system = Thioredoxin glutathione reductase (Schistosoma mansoni, UniProt Q962Y6); assay = enzyme activity, inhibitor, absorbance; conditions = with preincubation; quantity = IC50; result = 1100 µM
SMILES = [Cd+2]; target or system = Transient receptor potential cation channel subfamily V member 1 (Trpv1, Rattus norvegicus, UniProt O35433); assay = transporter uptake, inhibitor, radiometric; quantity = IC50; result = 38 µM
SMILES = CCCCN1C(=O)C(C=CC=CC=C2C(=O)N(c3ccc(S(=O)(=O)O)cc3)N=C2C)C(=O)N(CCCC)C1=O; target or system = SLC4A1 (Homo sapiens, UniProt P02730); assay = chloride exchange flux, inhibitor, 36Cl exchange flux; test system = nystatin-treated cells; conditions = 0 °C, short exposure, initial binding; quantity = IC50; result = 0.83 ± 0.14 µM
SMILES = CN1CCN(Cc2nc3cccc4c3c([n+]2[O-])-c2ccccc2-4)CC1; target or system = TP53/Luciferin 4-monooxygenase (Homo sapiens, UniProt P04637+P08659, D436G/I423L/L530R); assay = p53 DNA binding, inhibitor, luciferase complementation; quantity = IC50; result = 4.1 µM
SMILES = C=C1C(=O)N[C@@H](C)C(=O)N(C)[C@@H](C)C(=O)N[C@@H]([C@H](OC(=O)[C@@H](NC(=O)CC)[C@H](O)C(C)C)C(C)C)C(=O)N(C)[C@@H]([C@@H](C)OC)C(=O)O[C@H](C(C)C)[C@H](NC(C)=O)C(=O)O[C@H](Cc2ccccc2)C(=O)N1C; target or system = Gnaq, with RGS2 (Mus musculus, UniProt P21279, Q209L); assay = RGS2–Gαq association, inhibitor, split-luciferase complementation; test system = HEK293; conditions = 18 h, constitutively active Gαq Q209L; quantity = IC50; result = 0.0004 µM
SMILES = C/C=C1\NC(=O)[C@@H](NC(=O)[C@@H](NC(=O)C/C(=C/Cl)CC)C(C)C)[C@@H](C)OC(=O)[C@H](C(C)C)NC(=O)[C@H](Cc2ccc(O)cc2)N(C)C(=O)[C@H](Cc2ccccc2)N2C(=O)[C@H](CC[C@H]2O)NC1=O; target or system = Proteinase K (PROK, Engyodontium album, UniProt P06873); assay = enzyme activity, inhibitor, fluorescence; conditions = pH 7.4; quantity = IC50; result = > 5 µM
SMILES = CS(=O)(=O)Cc1ccc(Nc2nccc(-c3c(-c4cccc(NC(=O)c5c(F)cccc5F)c4)nn4ccccc34)n2)cc1; target or system = ROP18; assay = enzyme activity, inhibitor; quantity = IC50; result = 0.44 µM
SMILES = CN[C@@](C)(C[18F])C(=O)O; test system = SCID mouse A549 xenograft, kidney; conditions = 15 min, post injection; quantity = tissue uptake; result = 31 ± 3.8 %ID/g
SMILES = Cc1ccncc1OC(=O)NCCCCCn1ccc2ccc(F)cc21; target or system = Cholinesterase (BCHE, Equus caballus, UniProt P81908); assay = enzyme activity, inhibitor, HPLC; quantity = IC50; result = 0.36 µM
SMILES = O=C(Oc1ccc([N+](=O)[O-])cc1)N1CCC(C(O)(c2ccc3c(c2)OCO3)c2ccc3c(c2)OCO3)CC1; target or system = Monoacylglycerol lipase ABHD6 (Abhd6, Rattus norvegicus, UniProt Q5XI64); assay = competitive ABPP; test system = rat brain membrane proteome; quantity = IC50; result = 2.94 µM
SMILES = Cn1cc(C2=C(c3cn(CCCN)c4ccccc34)C(=O)NC2=O)c2ccccc21; target or system = Putative glycogen synthase kinase (Leishmania major, UniProt Q4QE15, D105E); assay = enzyme activity, inhibitor; conditions = 90 min, 30 °C, together with: ATP 2 µM; quantity = IC50; result = 1.55 µM
SMILES = Fc1c(F)c(F)c(F)c(F)c1F; target or system = Neuronal acetylcholine receptor; alpha4/beta2 (Homo sapiens, UniProt P17787+P43681); assay = ion current, inhibitor, two-electrode voltage clamp; test system = Xenopus oocytes; conditions = together with: ACh 1 mM; quantity = IC50; result = 0.045 atm
SMILES = CC[C@@]1(O)C(=O)OCc2c1cc1n(c2=O)Cc2cc3ccccc3nc2-1; target or system = ERRα (human); assay = reporter gene, antagonist, luciferase reporter qHTS; quantity = IC50; result = 0.12 µM
SMILES = O=C(NCCCCCCn1ccc2ccc(F)cc21)Oc1ccccc1; target or system = Cholinesterase (BCHE, Equus caballus, UniProt P81908); assay = enzyme activity, inhibitor, HPLC; quantity = IC50; result = 3.3 µM and ~4 µM
SMILES = O=C(O)CSc1cc(NS(=O)(=O)c2ccc(Br)cc2)c2ccccc2c1O; target or system = Induced myeloid leukemia cell differentiation protein Mcl-1, with Bax (MCL1, Homo sapiens, UniProt Q07820); assay = Bax binding, SPR; quantity = IC50; result = 1.43 µM
SMILES = CC1=C(C(=O)NC(=O)c2cnccn2)C(c2cccc([N+](=O)[O-])c2)NC(=O)N1 (centres unmarked); target or system = Cholinesterase (BCHE, Equus caballus, UniProt P81908); quantity = IC50; result = 5.93 ± 0.01 µM
SMILES = NC(=S)Nc1ccccc1; target or system = Thyroid peroxidase (Tpo, Rattus norvegicus, UniProt P14650); assay = tyrosine iodination, LC-MS/MS; test system = rat thyroid microsomes; conditions = together with: KI 300 µM, H2O2 40 µM; quantity = IC50; result = 2.51 µM
SMILES = N.N.N.N.N.N.[Co+3]; target or system = Magnesium transporter MRS2 homolog, mitochondrial (MRS2, Homo sapiens, UniProt Q9HD23, R332S); assay = sodium current, inhibitor, two-electrode voltage clamp; test system = Xenopus oocytes; conditions = pH 7.4, room temperature, -60 mV holding potential, partial block; quantity = IC50; result = 300 µM
SMILES = CC(=O)Nc1ccc2ccn(-c3cc(NCC4COC4)n4ncc(C#N)c4n3)c2c1; target or system = Casein kinase II subunit alpha' (CSNK2A2, Homo sapiens, UniProt P19784); assay = target engagement in cells, BRET; quantity = IC50; result = 0.2 µM
SMILES = Oc1ccc(-c2ccc(Cl)c(Cl)c2)cc1; target or system = Sulfotransferase 2A6 (Sult2a6, Rattus norvegicus, UniProt P22789); assay = enzyme activity, inhibitor; conditions = 6 min, 37 °C, together with: DHEA 10 µM; quantity = IC50; result = 160 µM
SMILES = COc1cccc(C(=O)C2CCN(CCc3ccc(F)cc3)CC2)c1OC; target or system = 5-hydroxytryptamine receptor 2A (HTR2A, Homo sapiens, UniProt P28223); assay = calcium signal, antagonist; quantity = IC50; result = 0.034 µM
SMILES = CN1C(=O)[C@]23SS[C@@]1(C)C(=O)N2[C@H]1Nc2ccccc2[C@@]1([C@@]12c4ccccc4N[C@@H]1N1C(=O)[C@@]4(C)SS[C@]1(C(=O)N4C)[C@H]2O)[C@@H]3O; target or system = Histone-lysine N-methyltransferase 2D (KMT2D, Homo sapiens, UniProt O14686); assay = methyltransferase activity, inhibitor; conditions = together with: 1 µM [3H]SAM; quantity = IC50; result = > 10 µM
SMILES = NC(=O)CI; target or system = Lysosomal acid glucosylceramidase (GBA1, Homo sapiens, UniProt P04062, R534H); assay = enzyme activity, inhibitor; conditions = pH 5.9, 1.9 nM enzyme, together with: 30 µM resorufin β-glucoside; quantity = IC50; result = 7.01 µM
SMILES = Clc1ccc(C(c2ccc(Cl)cc2)n2cc[n+](CC(OCc3ccc(Cl)cc3Cl)c3ccc(Cl)cc3Cl)c2)cc1 (centres unmarked); target or system = sfp (Bacillus subtilis, UniProt P39135); assay = phosphopantetheinylation, inhibitor, fluorescence polarization; conditions = 45 min, pH 7.6, 10% DMSO, together with: VibB 10 µM and rhodamine-CoA 5 µM; quantity = IC50; result = 10 ± 1 µM
SMILES = C#C[C@]1(O)CC[C@H]2[C@@H]3CCC4=Cc5nc6nc7ccccc7n6cc5C[C@]4(C)[C@H]3CC[C@@]21C; target or system = ERRα (human); assay = reporter gene, antagonist, luciferase reporter qHTS; quantity = IC50; result = 10.6 µM
SMILES = O=S1(=O)CCc2ccc(Nc3nc(NC4CCNC4)nc4ccnc(O)c34)cc21 (centres unmarked); target or system = ROP18; assay = enzyme activity, inhibitor; quantity = IC50; result = > 10 µM
SMILES = CCN=C=S; target or system = Macrophage migration inhibitory factor (MIF, Homo sapiens, UniProt P14174); assay = enzyme activity, inhibitor; conditions = with preincubation; quantity = IC50; result = 11.1 µM
SMILES = CCCC(O)C(C)C(=O)NC/C=C\CC(C)C(O)C(C)C1C/C=C\CC(C)C(O)Cc2cc(OC)cc(O)c2C(=O)O1 (centres unmarked); target or system = ATP2/ATP1 (Saccharomyces cerevisiae, UniProt P00830+P07251); assay = ATPase activity, inhibitor; conditions = detergent-solubilised enzyme; quantity = IC50; result = ~0.075 µM
SMILES = COc1ccc(NC(=O)N2CCCCN3[C@H](CO)[C@H](c4ccc(C#Cc5ccccc5)cc4)[C@@H]3C2)cc1; target or system = Phenylalanine--tRNA ligase alpha subunit (Plasmodium falciparum, UniProt Q8I246); assay = aminoacylation activity, inhibitor; quantity = IC50; result = 0.033 µM
SMILES = O=C(O)C(=O)CBr; target or system = Histone deacetylase 3 (HDAC3, Homo sapiens, UniProt O15379); assay = enzyme activity, inhibitor; quantity = IC50; result = 33 µM
SMILES = CC(C)Cc1ccc(NC(=O)Oc2ccc3c(c2)[C@]2(C)CCN[C@@H]2N3)cc1; target or system = Cholinesterase (BCHE, Homo sapiens, UniProt P06276); assay = enzyme activity, inhibitor, immobilized enzyme reactor, HPLC-UV; test system = immobilized recombinant human enzyme; conditions = inhibition plateau, L-tartrate salt; quantity = IC50; result = 0.00801 ± 0.00024 µM
SMILES = N#CCCc1ccc2c(c1)-c1[nH]c3ccc([N+](=O)[O-])cc3c1CC(=O)N2; target or system = Putative glycogen synthase kinase (Leishmania major, UniProt Q4QE15, D105E/Y102F); assay = enzyme activity, inhibitor; conditions = 90 min, 30 °C, together with: ATP 2 µM; quantity = IC50; result = 0.87 µM

Some of these lines once more:
SMILES = C/C=C(/C)C(=O)O[C@H]1C(C)=C2[C@H]([C@@H]1OC(=O)CCCCCCC)[C@@](C)(OC(C)=O)C[C@H](OC(=O)CCCCCCCCCCCNC(=O)C[C@H](N)C(=O)O)[C@@]1(O)[C@H]2OC(=O)[C@@]1(C)O; target or system = Sarcoplasmic/endoplasmic reticulum calcium ATPase 1 (ATP2A1, Oryctolagus cuniculus, UniProt P04191); assay = enzyme activity, inhibitor; quantity = IC50; result = 0.018 ± 0.002 µM
SMILES = O=C(O)c1ccc2cccnc2n1; target or system = Thioredoxin glutathione reductase (Schistosoma mansoni, UniProt Q962Y6); assay = enzyme activity, inhibitor, absorbance; conditions = with preincubation; quantity = IC50; result = 1100 µM
SMILES = [Cd+2]; target or system = Transient receptor potential cation channel subfamily V member 1 (Trpv1, Rattus norvegicus, UniProt O35433); assay = transporter uptake, inhibitor, radiometric; quantity = IC50; result = 38 µM
SMILES = CCCCN1C(=O)C(C=CC=CC=C2C(=O)N(c3ccc(S(=O)(=O)O)cc3)N=C2C)C(=O)N(CCCC)C1=O; target or system = SLC4A1 (Homo sapiens, UniProt P02730); assay = chloride exchange flux, inhibitor, 36Cl exchange flux; test system = nystatin-treated cells; conditions = 0 °C, short exposure, initial binding; quantity = IC50; result = 0.83 ± 0.14 µM
SMILES = CN1CCN(Cc2nc3cccc4c3c([n+]2[O-])-c2ccccc2-4)CC1; target or system = TP53/Luciferin 4-monooxygenase (Homo sapiens, UniProt P04637+P08659, D436G/I423L/L530R); assay = p53 DNA binding, inhibitor, luciferase complementation; quantity = IC50; result = 4.1 µM
